# Measurements gathered from unrelated publications.
SMILES,target or system,test,test system,conditions,how to read,endpoint,result
OC(CCN1CCCCC1)(c1ccccc1)C1CC2C=CC1C2 (stereo not shown),,resting-state EEG,healthy elderly humans,"oral, 2 mg, eyes closed, LS mean",relative to: baseline,change in EEG Alpha2-power Pz-O1,28.5%
Nc1nc(=O)c2c([nH]1)NCC(CNc1ccc(C(=O)N[C@@H](CCC(=O)O)C(=O)O)cc1)N2C=O (mixture of isomers),,"binding, MIDAS equilibrium dialysis LC-MS",A2AR-BRIL thermostabilized,concentration not given,relative to: no-protein control,log2 fold change,-0.191
CSc1cc(Oc2ccnc3[nH]c(=O)cnc23)ccc1NC(=O)Nc1cc(C(C)(C)C)nn1-c1ccccc1,patient-derived cell line,reverse phase protein array,human,"1 µM, 4 h",relative to: DMSO,phosphorylated ribosomal protein S6 level,0.74
CCn1cc(-c2cc(Cn3ccoc3=N)cc3c2CCN([C@@H](C)c2cc(OC)ccn2)C3=O)c(C(F)(F)F)n1,HEL 92.1.7,cell growth,,120 h,,EC50,13.1 nM
N#Cc1ccc2c(c1)[C@H]1CCCN(C(=O)c3ccc4[nH]cnc4c3)[C@H]1C2,,,"human, plasma","360 mg, day 15",,fasting insulin,14.5 mU/L
O=C(O)CNC(=O)Cc1ccccc1,,,"ventricular cardiomyocytes, C57BL/6 mouse","dose not given, 0.592 s",,sarcomere length,1.66 µm
COc1cnc2cccc(N3CCc4c(cc(Cn5ccnc5C)cc4-c4cn(C)nc4C(F)(F)F)C3=O)c2c1,HT55,"cell growth, inhibitor",,120 h,,EC50,115 nM
CC(O)(CC(=O)O)CC(=O)O,,"binding, MIDAS equilibrium dialysis LC-MS",A2AR-BRIL thermostabilized,concentration not given,relative to: no-protein control,log2 fold change,-0.052
CCn1cc(-c2cc(Cn3ccnc3)cc3c2CCN([C@H](c2cc(OC)ccn2)C2CC2)C3=O)c(C(F)(F)F)n1,SHP77,"cell growth, inhibitor",,120 h,,EC50,> 30000 nM
CC(C)C[C@@H](O)C(=O)O,,"binding, MIDAS equilibrium dialysis LC-MS",A2AR-BRIL thermostabilized,concentration not given,relative to: no-protein control,log2 fold change,-0.557
O=C(/C=C/C=C/C=C/C1CCCCC1)NC1=C[C@@](O)(/C=C/C=C/C=C/C(=O)NC2=C(O)CCC2=O)[C@@H]2O[C@@H]2C1=O,Panc 04.03,CellTiter-Glo,,78 h,,GI50,24400 nM
Cn1cc(-c2ccc(-c3cncc(Cl)c3N3CCC4(CCNC4=O)CC3)cc2)cn1,COLO 205,"gene expression, microarray, refers to: FLOT1 mRNA",,"concentration not given, 6 h",relative to: untreated cells,log2 fold change,1.12
NC1CCCNC1=O (stereo not shown),,"binding, MIDAS equilibrium dialysis LC-MS",A2AR-BRIL thermostabilized,concentration not given,relative to: no-protein control,log2 fold change,-0.097

# Repeated from above:
SMILES,target or system,test,test system,conditions,how to read,endpoint,result
CCn1cc(-c2cc(Cn3ccnc3)cc3c2CCN([C@H](c2cc(OC)ccn2)C2CC2)C3=O)c(C(F)(F)F)n1,SHP77,"cell growth, inhibitor",,120 h,,EC50,> 30000 nM
CC(C)C[C@@H](O)C(=O)O,,"binding, MIDAS equilibrium dialysis LC-MS",A2AR-BRIL thermostabilized,concentration not given,relative to: no-protein control,log2 fold change,-0.557
